Experimental data from different studies.
Compare with care: the assays were run in different laboratories. Numbers after ± are the reported error.
SIGMAR1: Sigma non-opioid intracellular receptor 1 (SIGMAR1, Homo sapiens, UniProt Q99720)
UniProt Q99720, sequence (whole entry, looked up): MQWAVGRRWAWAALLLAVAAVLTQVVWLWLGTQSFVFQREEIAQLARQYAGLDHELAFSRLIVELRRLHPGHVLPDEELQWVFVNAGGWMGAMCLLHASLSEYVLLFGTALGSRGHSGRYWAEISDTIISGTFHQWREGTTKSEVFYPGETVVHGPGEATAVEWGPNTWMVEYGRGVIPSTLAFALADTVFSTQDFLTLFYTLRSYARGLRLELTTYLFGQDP
Slc6a4: Sodium-dependent serotonin transporter (Slc6a4, Rattus norvegicus, UniProt P31652)
UniProt P31652, sequence (whole entry, looked up): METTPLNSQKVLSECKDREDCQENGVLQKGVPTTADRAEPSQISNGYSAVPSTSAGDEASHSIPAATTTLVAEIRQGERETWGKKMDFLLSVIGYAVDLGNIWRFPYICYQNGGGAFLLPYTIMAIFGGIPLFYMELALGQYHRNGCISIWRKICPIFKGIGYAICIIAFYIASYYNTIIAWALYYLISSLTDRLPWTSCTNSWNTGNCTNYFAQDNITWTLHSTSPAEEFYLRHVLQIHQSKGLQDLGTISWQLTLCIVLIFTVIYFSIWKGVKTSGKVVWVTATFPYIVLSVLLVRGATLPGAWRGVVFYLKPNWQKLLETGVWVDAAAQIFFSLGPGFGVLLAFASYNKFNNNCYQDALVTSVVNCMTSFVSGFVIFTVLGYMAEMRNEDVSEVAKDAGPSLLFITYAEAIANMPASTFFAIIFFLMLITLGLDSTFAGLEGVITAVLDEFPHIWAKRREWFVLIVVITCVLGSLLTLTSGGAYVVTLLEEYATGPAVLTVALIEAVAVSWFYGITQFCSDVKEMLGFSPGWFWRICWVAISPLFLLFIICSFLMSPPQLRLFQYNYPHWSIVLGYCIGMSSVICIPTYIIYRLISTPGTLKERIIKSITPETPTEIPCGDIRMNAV
PIK3CA: Phosphatidylinositol 4,5-bisphosphate 3-kinase catalytic subunit alpha isoform (PIK3CA, Homo sapiens, UniProt P42336)
UniProt P42336, sequence (whole entry, looked up): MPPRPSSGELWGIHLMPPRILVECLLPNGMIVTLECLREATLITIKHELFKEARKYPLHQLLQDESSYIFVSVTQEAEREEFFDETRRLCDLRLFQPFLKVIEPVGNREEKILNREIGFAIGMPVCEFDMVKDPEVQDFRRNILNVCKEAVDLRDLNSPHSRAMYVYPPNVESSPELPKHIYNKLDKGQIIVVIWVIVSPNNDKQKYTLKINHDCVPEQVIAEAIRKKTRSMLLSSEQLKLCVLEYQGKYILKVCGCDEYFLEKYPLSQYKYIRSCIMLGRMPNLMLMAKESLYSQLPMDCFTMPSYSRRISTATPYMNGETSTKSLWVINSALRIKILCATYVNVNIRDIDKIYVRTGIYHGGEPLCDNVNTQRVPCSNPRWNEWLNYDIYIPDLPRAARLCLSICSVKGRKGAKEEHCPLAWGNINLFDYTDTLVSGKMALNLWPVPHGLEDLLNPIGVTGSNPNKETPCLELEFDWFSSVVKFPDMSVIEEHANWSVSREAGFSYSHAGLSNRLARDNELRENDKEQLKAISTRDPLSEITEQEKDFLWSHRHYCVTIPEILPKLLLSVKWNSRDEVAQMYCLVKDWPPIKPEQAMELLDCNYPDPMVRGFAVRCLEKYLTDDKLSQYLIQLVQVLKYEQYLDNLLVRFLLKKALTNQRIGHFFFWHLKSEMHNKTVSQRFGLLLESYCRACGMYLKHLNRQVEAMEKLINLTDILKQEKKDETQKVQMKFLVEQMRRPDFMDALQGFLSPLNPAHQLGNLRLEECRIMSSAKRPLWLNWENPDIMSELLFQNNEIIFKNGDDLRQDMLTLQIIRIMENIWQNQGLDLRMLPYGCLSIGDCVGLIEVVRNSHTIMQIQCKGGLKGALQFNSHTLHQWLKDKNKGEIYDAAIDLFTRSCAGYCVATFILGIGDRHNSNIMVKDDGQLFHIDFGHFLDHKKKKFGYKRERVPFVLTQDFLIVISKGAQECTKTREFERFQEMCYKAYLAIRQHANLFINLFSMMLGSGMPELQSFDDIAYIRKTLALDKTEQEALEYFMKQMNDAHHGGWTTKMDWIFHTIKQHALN
UniProt P41595, sequence (whole entry, looked up): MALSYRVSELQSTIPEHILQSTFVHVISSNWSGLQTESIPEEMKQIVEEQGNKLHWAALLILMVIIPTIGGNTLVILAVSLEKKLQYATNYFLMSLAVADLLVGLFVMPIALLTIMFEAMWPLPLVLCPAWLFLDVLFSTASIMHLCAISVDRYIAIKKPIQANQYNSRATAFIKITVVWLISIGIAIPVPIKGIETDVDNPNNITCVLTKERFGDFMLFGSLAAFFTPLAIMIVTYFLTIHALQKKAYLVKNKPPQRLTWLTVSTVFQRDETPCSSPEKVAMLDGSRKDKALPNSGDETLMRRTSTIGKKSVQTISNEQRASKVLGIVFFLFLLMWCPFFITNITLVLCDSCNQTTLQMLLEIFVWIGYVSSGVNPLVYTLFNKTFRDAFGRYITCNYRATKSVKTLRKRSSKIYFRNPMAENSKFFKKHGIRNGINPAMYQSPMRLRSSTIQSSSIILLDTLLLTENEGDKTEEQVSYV
UniProt P56817, sequence (whole entry, looked up): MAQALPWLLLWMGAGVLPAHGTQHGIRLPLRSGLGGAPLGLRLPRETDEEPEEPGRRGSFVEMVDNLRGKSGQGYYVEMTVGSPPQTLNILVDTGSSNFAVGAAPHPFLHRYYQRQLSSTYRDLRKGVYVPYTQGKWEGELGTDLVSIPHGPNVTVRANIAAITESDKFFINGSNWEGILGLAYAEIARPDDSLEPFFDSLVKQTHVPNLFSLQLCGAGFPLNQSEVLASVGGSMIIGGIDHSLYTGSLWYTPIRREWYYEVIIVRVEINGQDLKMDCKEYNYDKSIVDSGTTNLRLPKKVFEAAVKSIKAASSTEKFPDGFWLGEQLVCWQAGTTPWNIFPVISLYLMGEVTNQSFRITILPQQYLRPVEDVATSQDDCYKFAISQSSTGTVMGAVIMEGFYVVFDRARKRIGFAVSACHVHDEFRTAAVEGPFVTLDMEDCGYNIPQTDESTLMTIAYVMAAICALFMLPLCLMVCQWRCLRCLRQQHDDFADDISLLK
UniProt Q9Y2K2, sequence (whole entry, looked up): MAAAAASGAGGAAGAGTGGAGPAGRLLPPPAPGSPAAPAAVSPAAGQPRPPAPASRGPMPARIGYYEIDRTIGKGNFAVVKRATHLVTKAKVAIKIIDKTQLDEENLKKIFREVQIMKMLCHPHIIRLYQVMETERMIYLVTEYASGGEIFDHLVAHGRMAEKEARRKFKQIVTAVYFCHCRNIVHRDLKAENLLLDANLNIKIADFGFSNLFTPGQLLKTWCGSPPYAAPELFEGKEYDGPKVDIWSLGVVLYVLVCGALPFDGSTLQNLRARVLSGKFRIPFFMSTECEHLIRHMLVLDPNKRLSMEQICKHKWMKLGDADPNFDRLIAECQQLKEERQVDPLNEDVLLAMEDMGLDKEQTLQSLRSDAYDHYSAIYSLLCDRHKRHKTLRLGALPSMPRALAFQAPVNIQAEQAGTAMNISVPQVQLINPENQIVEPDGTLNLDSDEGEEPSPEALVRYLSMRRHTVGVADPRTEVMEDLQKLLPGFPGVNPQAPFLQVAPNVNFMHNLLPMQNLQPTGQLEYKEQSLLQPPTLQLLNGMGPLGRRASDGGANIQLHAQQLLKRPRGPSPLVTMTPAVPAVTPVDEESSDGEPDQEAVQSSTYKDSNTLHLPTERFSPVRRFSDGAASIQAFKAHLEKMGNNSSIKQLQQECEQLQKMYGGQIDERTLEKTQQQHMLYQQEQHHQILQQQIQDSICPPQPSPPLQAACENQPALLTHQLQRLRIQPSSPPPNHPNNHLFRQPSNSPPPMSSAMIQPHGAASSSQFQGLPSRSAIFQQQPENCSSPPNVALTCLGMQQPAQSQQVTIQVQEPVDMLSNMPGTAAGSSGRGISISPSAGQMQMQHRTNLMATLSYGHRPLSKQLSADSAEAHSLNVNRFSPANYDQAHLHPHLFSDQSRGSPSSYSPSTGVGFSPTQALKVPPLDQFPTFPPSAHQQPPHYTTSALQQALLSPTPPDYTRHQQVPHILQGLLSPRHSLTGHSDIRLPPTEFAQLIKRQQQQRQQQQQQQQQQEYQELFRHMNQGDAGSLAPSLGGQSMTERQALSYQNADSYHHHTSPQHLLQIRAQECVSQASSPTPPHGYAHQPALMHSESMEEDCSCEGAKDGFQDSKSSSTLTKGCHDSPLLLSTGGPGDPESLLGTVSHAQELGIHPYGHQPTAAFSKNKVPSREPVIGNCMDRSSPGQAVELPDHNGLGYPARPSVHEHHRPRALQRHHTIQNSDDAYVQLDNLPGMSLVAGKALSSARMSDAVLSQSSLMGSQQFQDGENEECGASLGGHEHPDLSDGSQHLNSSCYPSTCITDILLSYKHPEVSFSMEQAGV
UniProt P57059, sequence (whole entry, looked up): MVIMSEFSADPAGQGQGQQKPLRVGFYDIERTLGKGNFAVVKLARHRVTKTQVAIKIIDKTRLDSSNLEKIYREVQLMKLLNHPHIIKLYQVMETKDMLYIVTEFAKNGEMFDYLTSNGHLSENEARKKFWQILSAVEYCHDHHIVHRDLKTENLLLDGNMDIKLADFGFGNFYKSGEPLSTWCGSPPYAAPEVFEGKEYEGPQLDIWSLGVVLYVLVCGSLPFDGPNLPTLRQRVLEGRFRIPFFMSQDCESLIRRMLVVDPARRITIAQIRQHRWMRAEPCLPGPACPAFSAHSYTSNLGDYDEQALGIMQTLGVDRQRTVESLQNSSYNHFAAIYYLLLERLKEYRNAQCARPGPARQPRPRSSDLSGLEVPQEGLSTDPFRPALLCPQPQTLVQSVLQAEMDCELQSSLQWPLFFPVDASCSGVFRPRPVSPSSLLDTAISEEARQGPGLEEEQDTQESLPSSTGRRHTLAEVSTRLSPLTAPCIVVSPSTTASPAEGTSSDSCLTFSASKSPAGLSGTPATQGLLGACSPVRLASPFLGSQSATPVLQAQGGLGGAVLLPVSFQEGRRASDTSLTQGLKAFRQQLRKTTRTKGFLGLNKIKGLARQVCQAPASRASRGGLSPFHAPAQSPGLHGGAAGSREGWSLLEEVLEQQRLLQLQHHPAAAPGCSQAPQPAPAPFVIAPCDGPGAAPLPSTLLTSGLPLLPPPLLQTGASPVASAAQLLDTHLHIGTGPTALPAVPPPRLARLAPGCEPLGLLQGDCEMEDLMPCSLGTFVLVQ

SMILES = C[C@]12COc3ccc(OCc4cccc5ccccc45)cc3[C@H]1CCN2; tested on = SIGMAR1; test = cell-free assay, radioligand; endpoint = Ki; result = 4.6 nM
SMILES = CN1CC[C@@H](COc2cnc(C#N)cc2-c2ccn3nc(NC(=O)C4CC4)cc3c2)C1; tested on = SIK1 (Homo sapiens, UniProt P57059); test = enzyme activity, inhibitor, ADP detection; endpoint = Ki; result = 2.8 nM
SMILES = O=C1C2CCCN2C(c2cccs2)N1c1ccc(Cl)c(Cl)c1 (stereo not drawn); tested on = Slc6a4; test = ligand displacement, radioligand; endpoint = Ki; result = 86.1 nM
SMILES = Nc1ncc(-c2nc(N3CCOCC3)nc(N3CCN(C(=O)CCC(=O)NCCCCCCCCCCCNc4cccc5c4C(=O)N(C4CCC(=O)NC4=O)C5=O)CC3)n2)c(C(F)F)n1 (stereo not drawn); tested on = PIK3CA; test = ligand displacement, TR-FRET; endpoint = Ki; result = 3.99 nM
SMILES = CN(C)CCN(Cc1ccccc1)Cc1cccc(Br)c1; tested on = Slc6a4; test = ligand displacement, radioligand; endpoint = Ki; result = 50 nM
SMILES = Cn1ccc2c(N3CCN(CCCCOc4ccc5c(c4)NC(=O)CC5)CC3)cccc21; tested on = HTR2B (Homo sapiens, UniProt P41595); test = cell-free assay, radioligand; endpoint = Ki; result = 92 nM
SMILES = CC(C)(C)OC(=O)N1CCN(S(=O)(=O)c2ccc(-c3ccc4ncnc(Nc5ccc(OCc6cccc(F)c6)c(Cl)c5)c4c3)cc2)CC1; tested on = Leishmania major; test = intracellular amastigote growth, luciferase; system = RAW264.7 macrophages; endpoint = EC50; result = > 15000 nM
SMILES = Nc1ncc(-c2nc(N3CCOCC3)nc(N3CCOCC3)n2)c(C(F)F)n1; tested on = PIK3CA; test = ligand displacement, TR-FRET; endpoint = Ki; result = 2.84 nM
SMILES = Cc1ccc(C2CCN(C3CCCCC3O)CC2)cc1 (racemic); tested on = SIGMAR1; test = displacement, radioligand binding; system = HEK293; setting = together with: [3H](+)-pentazocine; endpoint = Ki; result = 14 ± 4 nM
SMILES = Nc1ncc(-c2nc(N3CCOCC3)nc(N3CCN(C(=O)CCC(=O)NCCCCCCCNc4cccc5c4C(=O)N(C4CCC(=O)NC4=O)C5=O)CC3)n2)c(C(F)F)n1 (stereo not drawn); tested on = PIK3CA; test = ligand displacement, TR-FRET; endpoint = Ki; result = 1.84 nM
SMILES = CC1NCC(c2ccccc2Cl)c2c1[nH]c1ccccc21 (stereo not drawn); tested on = Slc6a4; test = ligand displacement, radioligand; endpoint = Ki; result = 322 nM
SMILES = OC1CCCCC1N1CCC(c2ccc(Br)cc2)CC1 (racemic); tested on = SIGMAR1; test = displacement, radioligand binding; system = HEK293; setting = together with: [3H](+)-pentazocine; endpoint = Ki; result = 4.8 ± 2.2 nM
SMILES = OC[C@H]1O[C@@H](Oc2cc3c(O)cc(O)cc3[o+]c2-c2cc(O)c(O)c(O)c2)[C@H](O)[C@@H](O)[C@H]1O; tested on = PPO3 (Agaricus bisporus, UniProt C7FF04); test = enzyme activity, inhibitor; endpoint = Ki; result = 22400 nM
SMILES = Cc1ccc(C2CCN(C3Cc4ccccc4CC3O)CC2)cc1 (racemic); tested on = SIGMAR1; test = displacement, radioligand binding; system = HEK293; setting = together with: [3H](+)-pentazocine; endpoint = Ki; result = 5.7 ± 2.6 nM
SMILES = Nc1ncc(-c2nc(N3CCOCC3)nc(N3CCN(C(=O)CCC(=O)NCCCCCCCCCCNc4cccc5c4C(=O)N(C4CCC(=O)NC4=O)C5=O)CC3)n2)c(C(F)F)n1 (stereo not drawn); tested on = PIK3CA; test = ligand displacement, TR-FRET; endpoint = Ki; result = 3.43 nM
SMILES = CC(C)[C@@H]1NC(=O)[C@H](Cc2ccccc2)NC(=O)[C@H](Cc2ccc(O)cc2)NC(=O)CCSSC[C@@H](C(=O)N2CCC[C@H]2C(=O)N[C@H](CCCNC(=N)N)C(=O)NCC(N)=O)NC(=O)[C@H](CC(N)=O)NC1=O; tested on = AVPR1A (Homo sapiens, UniProt P37288); test = ligand displacement, radioligand; setting = cell membranes; endpoint = Ki; result = 16.5 nM
SMILES = O=C(N/N=C/c1cc[n+](Cc2ccccc2)c2ccccc12)c1cccc(C(=O)N/N=C/c2cc[n+](Cc3ccccc3)c3ccccc23)c1; tested on = MYC parallel G4 DNA; test = FRET melting; setting = 1 µM, DNA 0.2 µM, together with: duplex DNA competitor 10 µM; endpoint = ΔTm; result = 6.1 ± 0.2 °C
SMILES = C[C@]12COc3ccc(OCc4ccccc4C(F)(F)F)cc3[C@H]1CCN2; tested on = SIGMAR1; test = cell-free assay, radioligand; endpoint = Ki; result = 2.7 nM
SMILES = CC[n+]1cccc2cc(/C=N/NC(=O)C(=O)N/N=C/c3ccc4c(ccc[n+]4CC)c3)ccc21; tested on = hp2 hairpin duplex DNA; test = FRET melting; setting = 1 µM, together with: ds26 10 µM; endpoint = ΔTm; result = 1 ± 0.3 °C
SMILES = CCC1(CC)CC(=O)N(C2c3cc(C(=O)NC4c5ccccc5CC4O)ccc3OC2(C)COC)C(=N)N1 (stereo not drawn); tested on = Beta-secretase 1 (BACE1, Homo sapiens, UniProt P56817); test = enzyme activity, inhibitor; endpoint = Ki; result = > 5740 nM
SMILES = Fc1cccc(COc2ccc(Nc3ncnc4ccc(-c5cccc(-n6cccn6)c5)cc34)cc2Cl)c1; tested on = Leishmania major; test = intracellular amastigote growth, luciferase; system = RAW264.7 macrophages; endpoint = EC50; result = > 15000 nM
SMILES = CNCc1ccc(-c2cc(Cl)cc(Cl)c2)o1; tested on = Slc6a4; test = ligand displacement, radioligand; endpoint = Ki; result = 90.5 nM
SMILES = C[C@]12COc3ccc(Oc4ccccc4)cc3[C@H]1CCN2; tested on = SIGMAR1; test = cell-free assay, radioligand; endpoint = Ki; result = 1.9 nM
SMILES = CNCc1ccccc1OCc1ccc(C)cc1; tested on = Slc6a4; test = ligand displacement, radioligand; endpoint = Ki; result = 28.4 nM
SMILES = O=C(NCCCCCCOP(=O)(O)OP(=O)(O)OP(=O)(O)O)OCC1c2ccccc2-c2ccccc21; tested on = POLA1 (Homo sapiens, UniProt P09884); test = enzyme activity, inhibitor, radiometric; endpoint = Ki; result = 145000 nM
SMILES = COc1ccc(CC(CN)c2ccccc2)cc1 (stereo not drawn); tested on = Slc6a4; test = ligand displacement, radioligand; endpoint = Ki; result = 2300 nM
SMILES = COc1ccccc1-c1ccn2nc(NC(=O)C3CC3)cc2c1; tested on = SIK3 (Homo sapiens, UniProt Q9Y2K2); test = cell-free assay, inhibitor; endpoint = Ki; result = 406 nM

For quick reference, copied from above:
SMILES = Nc1ncc(-c2nc(N3CCOCC3)nc(N3CCN(C(=O)CCC(=O)NCCCCCCCNc4cccc5c4C(=O)N(C4CCC(=O)NC4=O)C5=O)CC3)n2)c(C(F)F)n1 (stereo not drawn); tested on = PIK3CA; test = ligand displacement, TR-FRET; endpoint = Ki; result = 1.84 nM
